Results collected from several papers.
Each line is one published result; not all experiments were run side by side. Values joined by “and” are separate records of one study, mostly repeats; a detail may differ. ± gives the spread as reported.
VCP: Transitional endoplasmic reticulum ATPase (VCP, Homo sapiens, UniProt P55072)
UniProt P55072, sequence (whole entry, looked up): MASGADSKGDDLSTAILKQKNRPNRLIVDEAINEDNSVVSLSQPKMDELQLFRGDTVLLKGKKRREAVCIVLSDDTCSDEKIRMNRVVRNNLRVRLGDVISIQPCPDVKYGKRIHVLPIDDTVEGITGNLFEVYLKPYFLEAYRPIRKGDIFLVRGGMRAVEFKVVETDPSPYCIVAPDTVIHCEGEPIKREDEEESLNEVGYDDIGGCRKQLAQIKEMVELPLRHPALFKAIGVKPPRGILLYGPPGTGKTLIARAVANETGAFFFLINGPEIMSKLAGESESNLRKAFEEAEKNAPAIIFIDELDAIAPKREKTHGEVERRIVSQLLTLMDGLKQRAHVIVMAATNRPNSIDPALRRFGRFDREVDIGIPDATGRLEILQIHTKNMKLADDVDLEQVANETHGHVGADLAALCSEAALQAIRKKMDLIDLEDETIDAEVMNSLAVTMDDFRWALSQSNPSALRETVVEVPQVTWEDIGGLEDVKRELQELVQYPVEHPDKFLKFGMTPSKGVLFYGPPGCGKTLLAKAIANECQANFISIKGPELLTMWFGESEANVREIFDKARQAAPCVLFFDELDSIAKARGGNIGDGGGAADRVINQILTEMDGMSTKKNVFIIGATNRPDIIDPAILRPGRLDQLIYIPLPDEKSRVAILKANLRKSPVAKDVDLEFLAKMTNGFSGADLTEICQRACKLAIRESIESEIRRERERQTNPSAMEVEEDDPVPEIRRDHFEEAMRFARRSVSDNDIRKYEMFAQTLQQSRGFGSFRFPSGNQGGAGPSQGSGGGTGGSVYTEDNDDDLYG
17-beta-hydroxysteroid dehydrogenase 13: 17-beta-hydroxysteroid dehydrogenase 13 (Homo sapiens, UniProt Q7Z5P4)
UniProt Q7Z5P4, sequence (whole entry, looked up): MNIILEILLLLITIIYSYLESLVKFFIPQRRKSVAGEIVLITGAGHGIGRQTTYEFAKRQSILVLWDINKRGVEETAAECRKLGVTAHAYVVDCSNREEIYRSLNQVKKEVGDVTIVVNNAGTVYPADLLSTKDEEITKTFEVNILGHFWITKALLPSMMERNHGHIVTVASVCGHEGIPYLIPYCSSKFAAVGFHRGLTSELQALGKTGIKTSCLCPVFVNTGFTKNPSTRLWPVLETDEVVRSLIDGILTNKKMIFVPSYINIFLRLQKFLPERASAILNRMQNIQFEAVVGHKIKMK
UniProt Q91XE4, sequence (whole entry, looked up): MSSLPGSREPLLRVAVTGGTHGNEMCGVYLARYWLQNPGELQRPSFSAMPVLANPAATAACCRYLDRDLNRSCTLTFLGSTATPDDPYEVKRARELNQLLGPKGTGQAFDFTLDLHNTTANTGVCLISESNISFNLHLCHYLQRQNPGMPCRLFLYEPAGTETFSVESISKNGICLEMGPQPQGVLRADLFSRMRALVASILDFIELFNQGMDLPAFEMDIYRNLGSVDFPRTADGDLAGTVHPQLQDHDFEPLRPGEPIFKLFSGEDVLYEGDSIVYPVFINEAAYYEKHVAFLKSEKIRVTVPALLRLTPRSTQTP
UniProt P08183, sequence (whole entry, looked up): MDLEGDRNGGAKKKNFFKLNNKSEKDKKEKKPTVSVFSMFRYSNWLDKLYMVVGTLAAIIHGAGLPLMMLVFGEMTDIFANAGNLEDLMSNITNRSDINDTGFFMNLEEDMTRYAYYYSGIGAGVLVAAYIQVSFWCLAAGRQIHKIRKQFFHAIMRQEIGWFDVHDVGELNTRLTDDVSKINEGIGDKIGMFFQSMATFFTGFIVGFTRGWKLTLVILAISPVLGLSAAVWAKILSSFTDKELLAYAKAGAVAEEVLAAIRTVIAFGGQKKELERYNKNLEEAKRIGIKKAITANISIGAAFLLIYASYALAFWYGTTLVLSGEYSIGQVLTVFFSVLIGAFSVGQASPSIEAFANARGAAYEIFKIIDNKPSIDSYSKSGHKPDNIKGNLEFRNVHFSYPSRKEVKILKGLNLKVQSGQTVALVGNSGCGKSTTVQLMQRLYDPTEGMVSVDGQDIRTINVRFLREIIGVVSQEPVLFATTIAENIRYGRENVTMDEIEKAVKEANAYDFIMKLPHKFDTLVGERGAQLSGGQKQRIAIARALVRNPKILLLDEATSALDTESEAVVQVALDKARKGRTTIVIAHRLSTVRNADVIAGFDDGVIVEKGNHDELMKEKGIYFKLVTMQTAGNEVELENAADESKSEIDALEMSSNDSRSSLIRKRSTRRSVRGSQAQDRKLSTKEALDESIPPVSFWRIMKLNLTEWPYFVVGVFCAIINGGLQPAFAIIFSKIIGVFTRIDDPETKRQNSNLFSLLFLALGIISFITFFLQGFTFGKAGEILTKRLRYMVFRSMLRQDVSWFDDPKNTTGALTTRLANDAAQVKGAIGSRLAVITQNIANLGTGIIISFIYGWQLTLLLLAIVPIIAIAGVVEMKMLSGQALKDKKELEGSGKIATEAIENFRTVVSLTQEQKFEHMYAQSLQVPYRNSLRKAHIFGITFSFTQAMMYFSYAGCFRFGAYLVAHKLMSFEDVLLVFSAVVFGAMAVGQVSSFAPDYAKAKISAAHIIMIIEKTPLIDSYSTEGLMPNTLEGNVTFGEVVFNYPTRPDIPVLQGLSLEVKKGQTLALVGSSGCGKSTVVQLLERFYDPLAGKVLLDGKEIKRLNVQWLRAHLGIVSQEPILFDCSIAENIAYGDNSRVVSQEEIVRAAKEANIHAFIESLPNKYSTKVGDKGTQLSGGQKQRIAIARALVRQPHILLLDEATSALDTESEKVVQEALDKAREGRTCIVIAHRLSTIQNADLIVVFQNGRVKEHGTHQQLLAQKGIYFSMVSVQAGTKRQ
UniProt P81947, sequence (whole entry, looked up): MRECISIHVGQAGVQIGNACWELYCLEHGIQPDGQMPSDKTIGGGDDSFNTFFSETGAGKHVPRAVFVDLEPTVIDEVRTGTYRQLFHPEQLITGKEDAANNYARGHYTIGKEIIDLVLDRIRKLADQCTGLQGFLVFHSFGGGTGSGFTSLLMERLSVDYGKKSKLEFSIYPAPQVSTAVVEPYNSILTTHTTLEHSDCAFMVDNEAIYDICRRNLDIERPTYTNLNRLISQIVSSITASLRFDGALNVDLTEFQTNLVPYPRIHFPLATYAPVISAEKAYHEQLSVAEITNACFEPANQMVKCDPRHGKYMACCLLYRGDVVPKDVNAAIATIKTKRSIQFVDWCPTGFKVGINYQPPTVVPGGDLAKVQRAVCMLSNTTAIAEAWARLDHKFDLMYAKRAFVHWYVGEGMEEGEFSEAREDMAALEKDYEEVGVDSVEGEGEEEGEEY
UniProt O75582, sequence (whole entry, looked up): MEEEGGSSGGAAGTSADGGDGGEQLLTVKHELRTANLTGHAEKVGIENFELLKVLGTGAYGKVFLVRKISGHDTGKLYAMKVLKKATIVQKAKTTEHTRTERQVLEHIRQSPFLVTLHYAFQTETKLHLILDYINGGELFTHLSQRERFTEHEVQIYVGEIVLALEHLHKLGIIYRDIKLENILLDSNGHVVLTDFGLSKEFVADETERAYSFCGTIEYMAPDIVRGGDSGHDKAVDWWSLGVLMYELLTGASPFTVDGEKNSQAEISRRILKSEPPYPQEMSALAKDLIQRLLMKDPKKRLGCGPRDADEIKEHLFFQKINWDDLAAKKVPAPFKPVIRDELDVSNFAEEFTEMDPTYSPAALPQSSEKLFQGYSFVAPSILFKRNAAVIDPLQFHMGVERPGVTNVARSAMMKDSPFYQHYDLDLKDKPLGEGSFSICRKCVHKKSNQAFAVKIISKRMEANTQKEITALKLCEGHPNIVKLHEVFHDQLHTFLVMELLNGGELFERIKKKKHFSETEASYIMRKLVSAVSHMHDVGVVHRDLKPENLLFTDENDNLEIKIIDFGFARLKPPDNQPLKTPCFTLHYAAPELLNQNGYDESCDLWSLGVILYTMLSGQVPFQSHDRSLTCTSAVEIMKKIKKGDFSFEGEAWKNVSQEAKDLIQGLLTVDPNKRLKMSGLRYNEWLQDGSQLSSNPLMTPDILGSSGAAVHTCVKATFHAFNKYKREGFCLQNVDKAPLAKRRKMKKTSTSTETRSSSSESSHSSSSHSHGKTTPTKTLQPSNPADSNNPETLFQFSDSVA
UniProt Q96GD4, sequence (whole entry, looked up): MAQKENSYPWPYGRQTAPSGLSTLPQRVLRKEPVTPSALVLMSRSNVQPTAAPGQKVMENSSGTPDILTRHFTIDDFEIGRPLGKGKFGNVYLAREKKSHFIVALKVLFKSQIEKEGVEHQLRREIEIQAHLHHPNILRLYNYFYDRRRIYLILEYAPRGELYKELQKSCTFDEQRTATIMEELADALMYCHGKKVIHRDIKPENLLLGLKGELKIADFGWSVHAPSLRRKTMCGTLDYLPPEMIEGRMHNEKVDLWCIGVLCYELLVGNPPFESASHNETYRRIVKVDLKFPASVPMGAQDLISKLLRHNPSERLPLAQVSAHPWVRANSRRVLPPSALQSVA
UniProt Q9NWZ3, sequence (whole entry, looked up): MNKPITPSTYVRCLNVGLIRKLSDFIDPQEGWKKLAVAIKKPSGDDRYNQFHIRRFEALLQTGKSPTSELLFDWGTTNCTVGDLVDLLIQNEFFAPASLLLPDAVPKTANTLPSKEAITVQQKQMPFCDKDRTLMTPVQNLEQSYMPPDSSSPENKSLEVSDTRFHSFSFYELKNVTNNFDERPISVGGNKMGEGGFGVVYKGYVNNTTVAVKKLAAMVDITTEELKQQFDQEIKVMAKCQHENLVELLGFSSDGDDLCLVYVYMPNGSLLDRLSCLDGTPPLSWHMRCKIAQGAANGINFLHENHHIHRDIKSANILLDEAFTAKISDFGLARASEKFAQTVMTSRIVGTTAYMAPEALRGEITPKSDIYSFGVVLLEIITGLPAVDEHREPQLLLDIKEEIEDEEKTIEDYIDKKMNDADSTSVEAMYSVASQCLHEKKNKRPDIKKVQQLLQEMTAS

SMILES	target	assay	conditions	IC50
COc1ccc(Nc2nc(N3CCN(S(=O)(=O)c4ccc(C)cc4)CC3)nc3ccccc23)cc1	VCP	enzyme activity, inhibitor	–	22 ± 12 µM
O=C(O)c1ccc(NS(=O)(=O)c2ccc(Cl)c(Cl)c2)c2ncccc12	17-beta-hydroxysteroid dehydrogenase 13	estradiol turnover, inhibitor, LC-MS	together with: β-estradiol	3.4 µM
Fc1ccc(CNc2nc(-c3ccc(Cl)cc3)nc3ccccc23)cc1	VCP	enzyme activity, inhibitor	–	8 ± 0.2 µM
CN1CCN(c2ccc(Nc3ncc4cc(C#N)c(=O)n(C5CCCC5)c4n3)cc2)CC1	Aurora kinase B (AURKB, Homo sapiens, UniProt Q96GD4)	–	–	0.259 µM
Cc1cnc(-c2ccc(-c3ccc(NC(=O)Nc4c(F)cc(F)cc4F)cc3F)c3c2C(=O)NC3)[nH]1	Tyrosine-protein kinase Fer (FER, Homo sapiens, UniProt P16591)	enzyme activity, inhibitor, mobility shift	together with: ATP 1 mM	0.0335 µM
O=C(O)c1ccc(NS(=O)(=O)c2ccc(Cl)c(Cl)c2)cc1	17-beta-hydroxysteroid dehydrogenase 13	inhibitor, NAD(P)H-Glo	together with: β-estradiol	0.77 µM
Cc1ccccc1Nc1nc(NCc2ccccc2)c2ccccc2n1	VCP	enzyme activity, inhibitor	–	3.4 ± 1.5 µM
C#Cc1cnc(Nc2ccc(CO)cc2)nc1Nc1ccccc1C(=O)NC	Interleukin-1 receptor-associated kinase 4 (IRAK4, Homo sapiens, UniProt Q9NWZ3)	–	cell-based	0.0155 ± 0.00098 µM
CC[C@H](C)[C@H](NC(=O)[C@H](CS)NC(=O)[C@H](CCC(=O)O)NC(=O)[C@H](C)NC(=O)[C@@H](NC(=O)[C@@H](N)CCCNC(=N)N)[C@@H](C)CC)C(=O)N[C@@H](CC(C)C)C(=O)NCC(=O)N[C@@H](CCSC)C(=O)O	HLA class I histocompatibility antigen, A alpha chain, allele A*02:01 (Homo sapiens, UniProt P04439)	binding, competitor, radioligand competition	two days, room temperature, HLA-A*02:01	6.72 µM
Fc1ccccc1-c1nc(NCc2ccccc2Cl)c2ccccc2n1	VCP	enzyme activity, inhibitor	–	26 ± 12 µM
O=c1nc(SCc2cc(F)cc(C(F)(F)F)c2)nc(SCc2ccc3sccc3c2)[nH]1	DNA topoisomerase 2-alpha (TOP2A, Homo sapiens, UniProt P11388)	ATPase activity, inhibitor, competitive ATPase	together with: 2 mM ATP	9.5 µM
CC/C(=N\NC(=O)NCc1cccc(O)c1)c1ccc(O)c(C)c1O	Ribosomal protein S6 kinase alpha-5 (RPS6KA5, Homo sapiens, UniProt O75582)	kinase activity, inhibitor	–	0.00372 ± 0.0001 µM
COc1ccccc1Nc1nc(NCc2ccccc2)c2ccccc2n1	VCP	enzyme activity, inhibitor	–	2.2 ± 0.9 µM
Oc1c(I)cc(Cl)c2cccnc12	N-acyl-aromatic-L-amino acid amidohydrolase (carboxylate-forming) (Acy3, Mus musculus, UniProt Q91XE4)	inhibitor	–	10 µM and ~10 µM
Cc1ccc(C(=O)Nc2ccnc(S(N)(=O)=O)c2)c(N2CCCC(F)(F)CC2)n1	Sodium channel protein type 10 subunit alpha (SCN10A, Homo sapiens, UniProt Q9Y5Y9)	tonic block, automated whole-cell patch clamp	first pulse	0.0047 ± 0.0008 µM
Cc1cc2c(F)c(Oc3ncnn4cc(OC[C@@H](C)O)c(C)c34)ccc2[nH]1	ATP-dependent translocase ABCB1 (ABCB1, Homo sapiens, UniProt P08183)	inhibitor	30 min	18.4 µM
COc1cc(C(=O)c2c[nH]c3cc(-c4cc5ccccc5o4)ccc23)cc(OC)c1OC	Tubulin alpha-1B chain/TUBB2B (Bos taurus, UniProt P81947+Q6B856)	tubulin polymerization, inhibitor, turbidimetric	together with: 10 µM bovine tubulin	> 20 µM

Repeated from above:
SMILES	target	assay	conditions	IC50
O=C(O)c1ccc(NS(=O)(=O)c2ccc(Cl)c(Cl)c2)c2ncccc12	17-beta-hydroxysteroid dehydrogenase 13	estradiol turnover, inhibitor, LC-MS	together with: β-estradiol	3.4 µM
